Experimental data collected from several papers.
Numbered parts are unrelated; each lists some results of a single study.

Series 1 — technique: protein binding microarray; molecule type: double-stranded DNA, one strand shown; matrix: in vitro; concentration: not given; reference: not given; direction: higher = stronger binding
Target: Histone acetyltransferase KAT6A, winged helix 2, GST fusion (KAT6A, Homo sapiens, UniProt Q92794, residues 85-181)
Setting: 8-mer, flanks averaged, mean of 2 arrays, mostly near background
Target sequence (chain): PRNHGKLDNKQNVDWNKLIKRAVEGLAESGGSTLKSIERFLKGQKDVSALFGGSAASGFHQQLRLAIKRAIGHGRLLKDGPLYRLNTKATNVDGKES
Oligonucleotide	E-score
CTGAGGTC	-0.024
CCAAATGA	-0.0998
ATTGCCGC	0.107
AACGTCAT	-0.241
AACTACGA	0.0365
CAGGTAGA	-0.101
CTGACTCA	-0.0828
AGTCAGGG	-0.0932
ATGCAAAA	0.13
GATGCACC	0.0609
ATCAGTCC	-0.329
CGTGGCGA	0.167
GATACACA	-0.0964
ACGACAGA	-0.0131
CACGGCGA	0.25
GCATAGAA	0.16
CTTCGGCA	0.0104
GTAGCCAC	0.0403
CTTCTTTC	-0.0741
TTACTGAA	0.127
ACAGGGCA	0.0281
GACCCTTA	-0.119
ATGGTATA	-0.0601
AGGAGTCG	-0.213
CATGATTC	-0.0816

Series 2 — technique: universal PBM; molecule type: double-stranded DNA, one strand shown; matrix: in vitro; concentration: 600 nM; direction: higher = stronger binding
Target: Sal-like protein 4, full length isoform A (SALL4, Homo sapiens, UniProt Q9UJQ4, residues 1-1053)
Chain of UniProt Q9UJQ4 (whole entry, looked up): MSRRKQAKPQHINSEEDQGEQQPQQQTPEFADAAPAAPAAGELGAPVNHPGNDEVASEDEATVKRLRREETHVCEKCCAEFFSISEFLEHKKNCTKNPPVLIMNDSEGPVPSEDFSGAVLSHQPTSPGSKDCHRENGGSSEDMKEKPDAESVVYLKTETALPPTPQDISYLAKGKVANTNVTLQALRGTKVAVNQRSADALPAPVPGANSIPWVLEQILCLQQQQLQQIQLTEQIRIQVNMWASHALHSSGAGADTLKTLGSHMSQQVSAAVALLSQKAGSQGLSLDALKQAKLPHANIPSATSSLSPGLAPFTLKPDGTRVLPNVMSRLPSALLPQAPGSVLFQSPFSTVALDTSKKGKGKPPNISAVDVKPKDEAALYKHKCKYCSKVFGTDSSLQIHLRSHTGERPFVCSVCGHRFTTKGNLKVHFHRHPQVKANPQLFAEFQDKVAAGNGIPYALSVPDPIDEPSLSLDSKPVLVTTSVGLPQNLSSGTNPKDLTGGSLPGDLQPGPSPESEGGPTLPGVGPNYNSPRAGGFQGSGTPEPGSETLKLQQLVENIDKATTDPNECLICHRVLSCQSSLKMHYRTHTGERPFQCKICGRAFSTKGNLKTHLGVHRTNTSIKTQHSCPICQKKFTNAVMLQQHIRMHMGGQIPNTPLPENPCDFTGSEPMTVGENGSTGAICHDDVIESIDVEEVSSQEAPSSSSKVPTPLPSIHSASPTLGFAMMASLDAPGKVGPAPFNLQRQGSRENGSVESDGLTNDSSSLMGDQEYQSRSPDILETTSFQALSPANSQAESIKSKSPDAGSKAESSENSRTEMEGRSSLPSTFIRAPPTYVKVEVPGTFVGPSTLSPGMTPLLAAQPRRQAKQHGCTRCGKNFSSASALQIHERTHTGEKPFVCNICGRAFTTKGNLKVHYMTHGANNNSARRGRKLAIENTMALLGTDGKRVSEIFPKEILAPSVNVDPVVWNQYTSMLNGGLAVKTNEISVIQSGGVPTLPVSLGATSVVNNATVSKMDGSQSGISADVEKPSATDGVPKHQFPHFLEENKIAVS
Setting: 8-mer, flanks averaged, mean of replicates
Oligonucleotide	E-score
CGTTAGGA	-0.061
TAATAAGA	0.335
CCAATGCC	-0.189
GCTTAGGA	-0.275
AGAGCCGG	-0.372
CGAACTTA	-0.0907
CTGGCCGC	-0.212
AACCGGAT	-0.0218
AGCTTTCA	-0.0181
ACGTAGTA	0.0271
AGAGGCAT	-0.0507
ATTGACCC	-0.00277
CGGAATCC	-0.169
ATCGAAAA	0.295
ATCGCACG	-0.0422
CGGCTACA	-0.103
ATGGAACC	-0.0661
AACTCTCC	-0.0435
CAAGAATC	0.123
CACCTCAA	-0.137
TACTAAAA	0.257
CCTAGACC	-0.146
AAGCCCCT	-0.21
CCGGTGGC	-0.377
GGGATTAC	-0.168

Series 3 — technique: RNA Bind-n-Seq; molecule type: RNA; matrix: in vitro; concentration: 200 nM; setting: whole 134-nt RNA, ends assumed; together with: 150 mM LiCl; reference: input library; direction: higher = stronger binding; library: 7-deaza-guanosine replaces G
Target: Fragile X messenger ribonucleoprotein 1, C-terminal low-complexity region (Fmr1, Mus musculus, UniProt P35922)
Shared flanks, not repeated: GGGAGUUCUACAGUCCGACGAUC … UGGAAUUCUCGGGUGUCAAGG
Oligonucleotide	log2 enrichment
AGUCCUGUGCUACACAUCGUAUGUACCGAAUCGGGUUUGGGUUUGGGAAAAAAAGGGAAAGUAUUAUGUUACGCCGUUCGGAUCUGCACU	-1.83
CCUCAAGUCCUGUGCUACACAUCGUAUGUACCGAAUCGGUUGGUUGGGGUUGGAAAGUAUUAUGUUACGCCGUUCGGAUCUGCACUUCCA	-0.599
CAAGUCCUGUGCUACACAUCGUAUGUACCGAAUCGGGCCCCGGCCCCGGCCCCGGGAAAGUAUUAUGUUACGCCGUUCGGAUCUGCACUU	-1.37
ACCAUGCAGGUGGGCACCUUUGGGAAGUGGGGCAAGGGGGGGAUAGGGAGGGGGGUAACACUUUGGGAACAGGUGGUCCCAGGUCGUUUC	1.61
AAGUCCUGUGCUACACAUCGUAUGUACCGAAUCGGGAGGGUUUGGGAAAAAAAGGGAAAGUAUUAUGUUACGCCGUUCGGAUCUGCACUU	-1.4
UAACUUUAGAGGAGGAUCUGAUGGAUAUGGCAGUGGACGUGGACUUGGGGAUGGCUAUAAUGGGUAUGGAGGAGGACCUGGAGGUGGCAA	0.0801
GUCCUGUGCUACACAUCGUAUGUACCGAAUCGGGGAGGGGAAAGGGGAAAAAAAGGGGAAAGUAUUAUGUUACGCCGUUCGGAUCUGCAC	1.51
GUCCUGUGCUACACAUCGUAUGUACCGAAUCGGGAAAAAGGGGAAAAAGGGGAAAAAGGAAAGUAUUAUGUUACGCCGUUCGGAUCUGCA	0.701

Series 4 — technique: RNA Bind-n-Seq; molecule type: RNA; matrix: in vitro; concentration: 365 nM; reference: no-protein control; direction: higher = stronger binding
Target: RNA binding protein fox-1 homolog 2, RRM domain, GST-SBP tag (RBFOX2, Homo sapiens, UniProt O43251-10, residues 100-194)
Setting: natural RNA segment, single round, ends assumed
Shared flanks, not repeated: GGGAGUUCUACAGUCCGACGAUC … UGGAAUUCUCGGGUGCCAA
Oligonucleotide	RBNS enrichment (R)
UAAAUGAGAGGACAUGAGAUUUGGGAGGGGCCAGGGAGAGAAUGAUAUGGUUUGGCUGUGUCCCCAUCCAAAUAUCACCUUAAAUUGUAGCUCCCAUAAUUGUGGGAGGG	2.57
CUGUCAUCCACCUUGUACUAGAAAGUUUUAGCACUGAAUUAUUCCUUCUUCAUUGUUGUUUGUAUUUAUGAAAUUCUGAAAUUAUGGGGAAUCAGUGUACUGAUUAUGUU	1.39
CUACAAUAAACUGUGCCAAUUAAAAACCUAAGGCUAAAACUGAAAGCCCUUUGAUGGGGUCUUAACUCAUAUCAGUCAUUUGGGCUUCUCUGAUCCUGAGGCUAAGAAAG	0.397
AAUGUAUUUGCUUGGCUUGGAACUUAAGAUUGAACCAAUUUUACAAUAAAUCAAAUUGGAAGAAAUUGGUAAAAGGCAUUUUAGUAAUAUUGGAACUUUUUGAAGUGUGU	0.993
UUAUAUGCUAAAUGCAUAUUUUAUGAUUUGCUGUAUUAACUGAUGAUAAAACUAAUGGCAGAAAAAGAAGUUGAGCAAUUUCUAUGUAAUGUACAGAUACUAGCAUUGCA	1.39
UUCUGAAUGUAAGGGAUUAAGAUAUCAGCUGUAAACUUAACUUUGUCUCCGAAUCUGAGAAUUCGAAAGAAAGCUAUGCUCAGUCUCUGUACAUGCUGAACUCCAAAUUC	0.452
UCAUACACCUCACCUGCCUUGGCAAGCCUAUUUUAGUGAUAUGGCAGCACGGAUAUAACACUAUGCAUUAAAAGCACUUUUUGUAAUAAGUUUAAUAUCCUAAAAGGAAU	0.764
GCGCCAGCCGUGGCACAACGCGGAGGGCCGGCUGCGGUACGGGCUGCGGCCGGCGAACCCCACGGAGGAGGGCCUGGCCAGCCUGCACAGCGUGCUGUUCCGCAAGCAGC	0.445

Series 5 — technique: aptamer microarray, sandwich; molecule type: DNA with 2'F-ANA; matrix: in vitro; concentration: 200 nM; together with: Cy3 exosite-II aptamer, 400 nM; direction: higher = stronger binding; oligonucleotide: GGTTGGTGTGGTTGG
Target: Prothrombin, mature alpha-thrombin (F2, Homo sapiens, UniProt P00734)
Setting: whole 15-mer aptamer, many near background
Modification	mean fluorescence intensity
2'F-ANA at 1 3 4 5 6 8 9 10 13 14	82.9 a.u.
2'F-ANA at 1 3 9 11 13 14 15	76.5 a.u.
2'F-ANA at 4 10 13 14	88 a.u.
2'F-ANA at 2 3 4 5 10 11 12 13	51.4 a.u.
2'F-ANA at 1 2 8 9 11 12 15	285 a.u.
2'F-ANA at 2 6 7 8 9 10 11 13 15	95.6 a.u.
2'F-ANA at 2 3 4 7 9 14 15	250 a.u.
2'F-ANA at 1 2 5 7 8 10 11 14	46.2 a.u.
2'F-ANA at 1 2 3 10 14 15	51 a.u.
2'F-ANA at 1 4 5 9 11 12 14	99.4 a.u.
2'F-ANA at 1 2 3 4 8 13 14	69.5 a.u.
2'F-ANA at 3 4 6 7 11 13 14	298 a.u.
2'F-ANA at 2 3 4 6 7 9 10 14	164 a.u.
2'F-ANA at 1 2 3 5 9 10 12 13 14 15	51 a.u.
2'F-ANA at 2 3 4 5 7 12 15	188 a.u.
2'F-ANA at 2 3 4 5 7 9 10 12 13 14 15	45.7 a.u.
2'F-ANA at 6 7 8 9 10 11 12 13 14	102 a.u.
